Results pooled from the literature.
Compare with care: the assays were run in different laboratories. Values joined by “and” are separate records of one study, mostly repeats; a detail may differ. ± gives the spread as reported.
HCRTR2 del254-292/I293E/K294R/L160H/M161K/Q254E: Orexin receptor type 2 (HCRTR2, Homo sapiens, UniProt O43614, del254-292/I293E/K294R/L160H/M161K/Q254E)
Sequence of UniProt O43614 (whole entry, unmodified, looked up): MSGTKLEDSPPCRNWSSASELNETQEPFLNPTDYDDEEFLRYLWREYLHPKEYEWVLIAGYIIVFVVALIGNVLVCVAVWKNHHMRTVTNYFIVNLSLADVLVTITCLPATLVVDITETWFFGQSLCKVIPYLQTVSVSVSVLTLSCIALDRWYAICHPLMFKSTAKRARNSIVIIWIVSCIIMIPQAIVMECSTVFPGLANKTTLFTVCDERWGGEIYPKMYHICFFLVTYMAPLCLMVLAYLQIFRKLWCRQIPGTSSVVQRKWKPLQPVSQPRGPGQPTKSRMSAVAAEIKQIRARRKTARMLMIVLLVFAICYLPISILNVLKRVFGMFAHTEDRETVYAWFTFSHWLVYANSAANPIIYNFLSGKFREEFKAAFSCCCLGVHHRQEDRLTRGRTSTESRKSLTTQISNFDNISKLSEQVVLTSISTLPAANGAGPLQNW
T1: AfsR 1-980 (Streptomyces avermitilis); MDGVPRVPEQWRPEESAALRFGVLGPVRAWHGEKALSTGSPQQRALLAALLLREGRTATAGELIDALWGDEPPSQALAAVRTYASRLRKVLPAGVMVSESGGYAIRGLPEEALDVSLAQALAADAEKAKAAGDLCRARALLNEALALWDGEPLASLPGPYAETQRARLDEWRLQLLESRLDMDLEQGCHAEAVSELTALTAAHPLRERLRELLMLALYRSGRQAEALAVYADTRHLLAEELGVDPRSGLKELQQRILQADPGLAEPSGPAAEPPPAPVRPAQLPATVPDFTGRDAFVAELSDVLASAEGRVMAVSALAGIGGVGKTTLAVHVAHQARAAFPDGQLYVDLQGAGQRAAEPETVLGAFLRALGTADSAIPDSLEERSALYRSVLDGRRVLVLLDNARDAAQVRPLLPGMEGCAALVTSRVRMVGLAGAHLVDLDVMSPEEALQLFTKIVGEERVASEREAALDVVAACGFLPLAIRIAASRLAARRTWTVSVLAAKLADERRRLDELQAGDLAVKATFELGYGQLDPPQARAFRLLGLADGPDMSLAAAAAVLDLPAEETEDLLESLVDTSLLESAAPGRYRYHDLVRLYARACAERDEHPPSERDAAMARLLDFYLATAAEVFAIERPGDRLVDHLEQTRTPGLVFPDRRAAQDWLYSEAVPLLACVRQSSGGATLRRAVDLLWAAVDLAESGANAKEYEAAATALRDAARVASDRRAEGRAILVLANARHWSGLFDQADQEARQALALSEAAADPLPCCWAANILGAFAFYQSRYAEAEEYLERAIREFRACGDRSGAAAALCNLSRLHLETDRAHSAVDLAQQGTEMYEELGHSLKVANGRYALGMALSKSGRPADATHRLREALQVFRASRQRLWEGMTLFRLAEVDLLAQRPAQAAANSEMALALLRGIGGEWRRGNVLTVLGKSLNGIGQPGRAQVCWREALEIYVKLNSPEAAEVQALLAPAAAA
B1: AKAP8; sequence looked up; chain MDQGYGGYGAWSAGPANTQGAYGTGVASWQGYENYNYYGAQNTSVTTGATYSYGPASWEAAKANDGGLAAGAPAMHMASYGPEPCTDNSDSLIAKINQRLDMMSKEGGRGGSGGGGEGIQDRESSFRFQPFESYDSRPCLPEHNPYRPSYSYDYEFDLGSDRNGSFGGQYSECRDPARERGSLDGFMRGRGQGRFQDRSNPGTFMRSDPFVPPAASSEPLSTPWNELNYVGGRGLGGPSPSRPPPSLFSQSMAPDYGVMGMQGAGGYDSTMPYGCGRSQPRMRDRDRPKRRGFDRFGPDGTGRKRKQFQLYEEPDTKLARVDSEGDFSENDDAAGDFRSGDEEFKGEDELCDSGRQRGEKEDEDEDVKKRREKQRRRDRTRDRAADRIQFACSVCKFRSFDDEEIQKHLQSKFHKETLRFISTKLPDKTVEFLQEYIVNRNKKIEKRRQELMEKETAKPKPDPFKGIGQEHFFKKIEAAHCLACDMLIPAQPQLLQRHLHSVDHNHNRRLAAEQFKKTSLHVAKSVLNNRHIVKMLEKYLKGEDPFTSETVDPEMEGDDNLGGEDKKETPEEVAADVLAEVITAAVRAVDGEGAPAPESSGEPAEDEGPTDTAEAGSDPQAEQLLEEQVPCGTAHEKGVPKARSEAAEAGNGAETMAAEAESAQTRVAPAPAAADAEVEQTDAESKDAVPTE
B2: EEF1A1; sequence looked up; chain GKEKTHINIVVIGHVDSGKSTTTGHLIYKCGGIDKRTIEKFEKEAAEMGKGSFKYAWVLDKLKAERERGITIDISLWKFETSKYYVTIIDAPGHRDFIKNMITGTSQADCAVLIVAAGVGEFEAGISKNGQTREHALLAYTLGVKQLIVGVNKMDSTEPPYSQKRYEEIVKEVSTYIKKIGYNPDTVAFVPISGWNGDNMLEPSANMPWFKGWKVTRKDGNASGTTLLEALDCILPPTRPTDKPLRLPLQDVYKIGGIGTVPVGRVETGVLKPGMVVTFAPVNVTTEVKSVEMHHEALSEALPGDNVGFNVKNVSVKDVRRGNVAGDSKNDPPMEAAGFTAQVIILNHPGQISAGYAPVLDCHTAHIACKFAELKEKIDRRSGKKLEDGPKFLKSGDAAIVDMVPGKPMCVESFSDYPPLGRFAVRDMRQTVAVGVIKAVDKKAAGAGKVTKSAQKAQKAK
B3: CSRP2; sequence looked up; chain MPVWGGGNKCGACGRTVYHAEEVQCDGRSFHRCCFLCMVCRKNLDSTTVAIHDEEIYCKSCYGKKYGPKGYGYGQGAGTLNMDRGERLGIKPESVQPHRPTTNPNTSKFAQKYGGAEKCSRCGDSVYAAEKIIGAGKPWHKNCFRCAKCGKSLESTTLTEKEGEIYCKGCYAKNFGPKGFGYGQGAGALVHAQ
Sequence of UniProt P34897 (whole entry, unmodified, looked up): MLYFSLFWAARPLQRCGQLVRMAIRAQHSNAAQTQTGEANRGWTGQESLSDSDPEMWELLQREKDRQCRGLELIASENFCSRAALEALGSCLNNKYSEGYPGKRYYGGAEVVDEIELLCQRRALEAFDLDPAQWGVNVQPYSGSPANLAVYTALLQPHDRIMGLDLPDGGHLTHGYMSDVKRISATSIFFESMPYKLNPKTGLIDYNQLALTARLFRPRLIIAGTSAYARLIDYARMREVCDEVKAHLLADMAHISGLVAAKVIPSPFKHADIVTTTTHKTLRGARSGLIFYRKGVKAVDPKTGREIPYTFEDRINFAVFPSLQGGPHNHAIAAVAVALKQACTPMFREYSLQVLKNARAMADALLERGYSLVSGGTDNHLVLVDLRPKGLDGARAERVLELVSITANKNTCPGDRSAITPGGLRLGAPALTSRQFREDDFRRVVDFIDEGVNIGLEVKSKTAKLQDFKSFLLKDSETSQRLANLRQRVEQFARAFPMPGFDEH
Sequence of UniProt P41586 (whole entry, looked up): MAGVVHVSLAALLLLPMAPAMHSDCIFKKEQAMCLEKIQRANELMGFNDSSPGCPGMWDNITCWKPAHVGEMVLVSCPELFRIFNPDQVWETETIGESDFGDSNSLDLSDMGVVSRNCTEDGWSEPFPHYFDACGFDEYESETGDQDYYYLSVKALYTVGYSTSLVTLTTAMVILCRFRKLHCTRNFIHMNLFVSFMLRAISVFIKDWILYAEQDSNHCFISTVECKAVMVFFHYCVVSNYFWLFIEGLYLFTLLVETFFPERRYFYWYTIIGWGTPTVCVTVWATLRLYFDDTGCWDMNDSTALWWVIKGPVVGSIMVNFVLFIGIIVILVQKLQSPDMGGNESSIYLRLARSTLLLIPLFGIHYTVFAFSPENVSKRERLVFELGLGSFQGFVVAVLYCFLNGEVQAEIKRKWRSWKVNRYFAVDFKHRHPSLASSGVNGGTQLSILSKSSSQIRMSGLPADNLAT
Sequence of UniProt Q7KQL9 (whole entry, looked up): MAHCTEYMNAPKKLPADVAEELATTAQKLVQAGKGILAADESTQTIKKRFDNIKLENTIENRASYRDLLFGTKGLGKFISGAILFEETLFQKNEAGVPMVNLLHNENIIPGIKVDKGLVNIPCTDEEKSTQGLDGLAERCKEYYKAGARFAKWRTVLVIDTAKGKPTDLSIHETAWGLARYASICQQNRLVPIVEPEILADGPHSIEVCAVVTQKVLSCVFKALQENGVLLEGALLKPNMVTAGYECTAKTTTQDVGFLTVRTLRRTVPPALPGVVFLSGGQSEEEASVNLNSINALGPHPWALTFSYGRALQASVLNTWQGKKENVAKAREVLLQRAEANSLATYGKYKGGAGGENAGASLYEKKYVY

Molecule | tested on | assay | system | conditions | how to read | measurement | result
pertussis toxin |  | astrogliosis, immunostaining | humanized UT (+/h+) mice, SAH model, meninges | dose not given | relative to: total area | GFAP-positive area | 1.71% and 2.01% and 2.45%
insulin human |  | measured: DLG4 | mouse, uninfected, brain | ip, dose not given, with: insulin | relative to: PBS-treated | mRNA fold change | 1.09
YMLDLQPET | ASPC1 (HLA-A2− HPV−) | 111In release | peptide | concentration not given, 16 h, E:T 25:1, IVS 5, with: peptide-generated T-cell line |  | specific lysis | 0.4%
B1 (AKAP8) |  | peptide binding, SILAC pull-down |  | concentration not given | relative to: non-acetylated over acetylated NIT1 peptide | log2 fold change | -0.239
GWTLNSAGYLLGPRRIDHLLMIKEMPIARGREEAPGA / YAVDNHRSFNDKHGFT-NH2 (C-amide) |  | RT-qPCR, measured: Ocln | mouse, DSS-induced colitis, colon | ip, 3 µM, 3% DSS, unit not given | relative to: Gapdh | mRNA level | 3.8 and 1.49 and 2.08 and 1.22
PTVEELYR (API5) |  | peptide binding, SILAC pull-down |  | concentration not given | relative to: non-acetylated over acetylated NIT1 peptide | log2 fold change | 0.271
KISEYRHYC | HN12 (HLA-A2+ HPV+) | 111In release | peptide | concentration not given, 16 h, E:T 25:1 IVS 5, with: peptide-generated T-cell line |  | specific lysis | 10.2%
APVPIPFAA | Mamu-A1*02601 MHC class I | peptide binding | peptide, Chinese rhesus macaque |  |  | IC50 | > 20 µM
CGTGAAACTGAACTCTCCCGAGGCCGCCGAGGTGCAGGCACTGCTGGCTCCGGCCGCCGCTGCCTGACACCGGGCAGGGCGTTCATCGTTCGTTTATCGCGGCCAGGCACTCTCTTGGTTGTCGATCCGTCGCGTCGGGGGGCAGACGGACCGCCGGTGAGGTCGCCGCACTCGCACCTTAGGGTGGGCGACTCGAGTGGCCCACCCGGCCACCCTCGGGGGAGTGGCCGGGTGGGCTCTCCACAGTTCAACGGCAATCACCATGGGGAGGCACCATCATGAGCGACATCACGAAGGAC (dsDNA) | T1, AfsR 1-980 (Streptomyces avermitilis) | EMSA | double-stranded DNA, one strand shown |  |  | binding | binds
B2 (EEF1A1) |  | peptide binding, SILAC pull-down |  | concentration not given | relative to: non-acetylated over acetylated NIT1 peptide | log2 fold change | 0.731
CAGGIFHSLALKC (BLIP-II cyclic peptide (Streptomyces); C-terminal amide, cyclic, disulfide) | TEM-1 β-lactamase (UniProt P62593) | BLI | peptide |  |  | koff | 0.00057 s⁻¹
ECM29 |  | peptide binding, SILAC pull-down |  | concentration not given | relative to: non-acetylated over acetylated NIT1 peptide | log2 fold change | 3.08
colistin | Aspergillus fumigatus |  | pkcA G579R, solid minimal medium | 20 µM, 4 days, 37 °C | relative to: untreated | radial growth ratio | 0.936 and 0.9 and 0.947
heparin sodium |  |  | healthy Chinese adult volunteers | continuous intravenous infusion, 8 IU/kg/h, 5 days |  | AEs excluding prolonged aPTT | 100%
KFGLPRIVA | Mamu-A1*02601 MHC class I | peptide binding | peptide, Chinese rhesus macaque |  |  | IC50 | > 20 µM
amyloid β-peptide (1–28) |  | substrate, LC-MS | phosphate buffer | 10 µM, 2 h, pH 7.4, 25 °C, with: MINP(β1–14) 1 equiv |  | remaining substrate | 88.4 ± 3.6%
tetrahydrofolate | SHMT2 (Homo sapiens, UniProt P34897) | substrate, MTHFD2-coupled NADH fluorescence |  | with: serine 200 mM |  | Km | 108 µM
dynein light chain LC8-type 1 |  | peptide binding, SILAC pull-down |  | concentration not given | relative to: non-acetylated over acetylated NIT1 peptide | log2 fold change | -0.36
nonaarginine | PorA peptide pore | peptide binding, planar bilayer single-channel recording |  | 0.5 µM, pH 7.4, -15 mV, cis side, 150 mM KCl |  | koff | 66.7 ± 7 s⁻¹

Molecule | tested on | assay | system | conditions | how to read | measurement | result
(−)-antroquinonol A | Hep3B | cytotoxicity, MTS |  | 72 h |  | IC50 | 8 ± 1.2 µM
AHNAK protein |  | peptide binding, SILAC pull-down |  | concentration not given | relative to: non-acetylated over acetylated NIT1 peptide | log2 fold change | 0.447
QQYNKPLCDL | Ca-Ski (HLA-A2+ HPV+) | 111In release | peptide | concentration not given, 16 h, E:T 25:1 IVS 5, with: peptide-generated T-cell line |  | specific lysis | 38.1%
GWTLNSAGYLLGPHAVDNHRSFNDKHGFT-NH2 (C-amide) |  |  | peptide, female mice, DSS-induced colitis | ip, 3 µM |  | colon length | 6.3 cm and 7.5 cm and 6.4 cm and 7 cm and 7.3 cm
aspterric acid |  | hypocotyl length | Arabidopsis thaliana Col-0 seeds | 6.25 µg/mL, seed germination | relative to: water control | inhibition | 69.5%
HVLVMSATRR |  |  | peptide, C57BL/6J mice, male, serum | subcutaneous osmotic pump, 3 mg/kg/day peptide basis, 8 weeks |  | ALT | 26 U/L and 165 U/L and 62 U/L
mastoparan | Swiss 3T3 quiescent |  |  |  |  | concentration causing morphological change | 10 to 20 µM
VYGIYCTLY | Mamu-B*08301 MHC class I | peptide binding | peptide, Chinese rhesus macaque |  |  | IC50 | > 20 µM
SFLLRNPNDKYEPF | BPAEC | fura-2 | peptide | 100 µM |  | peak cytosolic Ca2+ | 931 ± 74 nM
TLHEYMLDL | HPV16 E7-specific T-cell line | ELISA | peptide, supernatant | concentration not given, 24 h, with: peptide-pulsed autologous B cells |  | IFN-γ release | 475 pg/mL
Neurotensin | HCRTR2 del254-292/I293E/K294R/L160H/M161K/Q254E | sensor fluorescence, fluorescence imaging | HEK293T | concentration not given, unit not given | relative to: baseline | ΔF/F0 | 2.19 and 2.53 and 3.04 and 4.29 and 3.23 and 1.05 and 4.53 and -1.69
FBPA (Plasmodium falciparum, UniProt Q7KQL9) | TRAP C-terminal cytoplasmic tail (Plasmodium falciparum) | SPR |  |  |  | Kd | 0.115 µM
Neuromedin B | HCRTR2 del254-292/I293E/K294R/L160H/M161K/Q254E | sensor fluorescence, fluorescence imaging | HEK293T | concentration not given, unit not given | relative to: baseline | ΔF/F0 | -0.63 and 0.771 and -0.678 and 0.741 and -1.67 and -0.654 and -3.72 and 1.02
lead | non-cancerous | CCK-8 |  | 1 µM, 24 h, unit not given | relative to: untreated control | viability | 0.6
Met-enkephalin-Arg-Phe |  | antinociception, hot plate | male ICR-CD1 mice | intracerebroventricular, 50 µg/animal, 30 min |  | maximum possible effect | 8.72% and 15.3% and 6.36% and -6.65% and -8.91% and 9.41% and 6.14% and -2.18%
B3 (CSRP2) |  | peptide binding, SILAC pull-down |  | concentration not given | relative to: non-acetylated over acetylated NIT1 peptide | log2 fold change | -0.545
maxadilan | ADCYAP1R1 (Homo sapiens, UniProt P41586) | cAMP production, agonist | COS-7 | 37 °C, AUC over 20 min |  | Emax | 70 ± 2%
ANKRD17 |  | peptide binding, SILAC pull-down |  | concentration not given | relative to: non-acetylated over acetylated NIT1 peptide | log2 fold change | -0.207
hexaarginine | PorA peptide pore | peptide binding, planar bilayer single-channel recording |  | 0.5 µM, pH 7.4, -15 mV, cis side, 150 mM KCl |  | koff | 2500 ± 250 s⁻¹

A few entries again:
Molecule | tested on | assay | system | conditions | how to read | measurement | result
QQYNKPLCDL | Ca-Ski (HLA-A2+ HPV+) | 111In release | peptide | concentration not given, 16 h, E:T 25:1 IVS 5, with: peptide-generated T-cell line |  | specific lysis | 38.1%
GWTLNSAGYLLGPHAVDNHRSFNDKHGFT-NH2 (C-amide) |  |  | peptide, female mice, DSS-induced colitis | ip, 3 µM |  | colon length | 6.3 cm and 7.5 cm and 6.4 cm and 7 cm and 7.3 cm
aspterric acid |  | hypocotyl length | Arabidopsis thaliana Col-0 seeds | 6.25 µg/mL, seed germination | relative to: water control | inhibition | 69.5%
HVLVMSATRR |  |  | peptide, C57BL/6J mice, male, serum | subcutaneous osmotic pump, 3 mg/kg/day peptide basis, 8 weeks |  | ALT | 26 U/L and 165 U/L and 62 U/L
